Results collected from several papers.
Protocols differ between the studies behind these lines. Values joined by “and” are separate records of one study, mostly repeats; a detail may differ. Numbers after ± are the reported error.
NADH dehydrogenase [ubiquinone] iron-sulfur protein 7, mitochondrial/NADH dehydrogenase [ubiquinone] iron-sulfur protein 2, mitochondrial/MT-ND1: NADH dehydrogenase [ubiquinone] iron-sulfur protein 7, mitochondrial/NADH dehydrogenase [ubiquinone] iron-sulfur protein 2, mitochondrial/MT-ND1 (Homo sapiens, UniProt O75251+O75306+P03886)
Kir3.1/Kir3.2: Kir3.1/Kir3.2 (Homo sapiens, UniProt P48051+P48549)
TRPM8: Transient receptor potential cation channel subfamily M member 8 (TRPM8, Homo sapiens, UniProt Q7Z2W7)
GAP50: Glideosome-associated protein 50 (GAP50, Plasmodium falciparum, UniProt Q8I2X3)
FFAR4: Free fatty acid receptor 4 (FFAR4, Homo sapiens, UniProt Q5NUL3)
PDE1C isoform PDE1C2: Dual specificity calcium/calmodulin-dependent 3',5'-cyclic nucleotide phosphodiesterase 1C, isoform PDE1C2 (PDE1C, Homo sapiens, UniProt Q14123)

SMILES	target	assay	system	setting	how to read	quantity	value
CCC(=O)NS(=O)(=O)c1ccc(-c2c(-c3ccccc3)noc2C)cc1	Nuclear receptor subfamily 4 group A member 2, LBD (Homo sapiens, UniProt P43354)	reporter gene, Gal4 hybrid reporter		50 µM	baseline: vehicle	activation	0.51 fold
Nc1ncnc2c1ncn2[C@@H]1O[C@H](COP(=O)(O)OP(=O)(O)O)[C@@H](O)[C@H]1O	CKMT1A (Homo sapiens, UniProt P12532, E265Q)	substrate, Kinase-Glo luminescence		pH 7.0, reverse reaction, E227Q mutant, with: second substrate in excess		kcat	0.0005 ± 0.0002 s⁻¹
Nc1nc2c(F)c(F)c(F)cc2[nH]1	HVCN1 (Homo sapiens, UniProt Q96D96)	proton current, inhibitor, inside-out patch clamp	Xenopus oocytes	dimeric channel		Hill coefficient	1.09 ± 0.08
NCCCCC(=O)O	SLC6A6 (Homo sapiens, UniProt P31641, Y138A)	binding, microscale thermophoresis		30.5 nM, room temperature, with: 50 nM labelled protein	higher = more binding	normalised MST signal	0.0132
O=C(CCCCCCC(=O)Nc1ccccc1)NO	HDAC8 (Homo sapiens, UniProt Q9BY41)	ITC	Tris-HCl buffer	288 K		TΔS°	0.01 kcal/mol
Nc1ncnc2c1ncn2[C@@H]1O[C@H](COP(=O)(O)OP(=O)(O)OP(=O)(O)O)[C@@H](O)[C@H]1O	rat Ca2+-activated nonselective cation channel			four-subunit kinetic model		mutual destabilization factor ξ	47
Nc1ncnc2c1ncn2[C@@H]1O[C@H](COP(=O)(O)CP(=O)(O)OP(=O)(O)O)[C@@H](O)[C@H]1O	P2X purinoceptor 1 (P2RX1, Homo sapiens, UniProt P51575, F188L)	saturation binding	HEK293	1 nM		specific binding	170 CCPM and 114 CCPM
CC[C@@H]1[C@H](F)C(=O)N[C@@H]1COc1nccc2cc(C(N)=O)c(OC)cc12	RPS6KA1 (Homo sapiens, UniProt Q15418)	ATP probe binding, KiNativ profiling, measured: domain 1 activation loop	THP-1 cell lysate	0.2 mM		inhibition	14.6%
c1ccc(C(NCc2cccnc2)(c2ccccc2)c2ccccc2)cc1	KCNQ1 (Homo sapiens, UniProt P51787)	whole-cell patch clamp		300 pM		fast decay time constant	126 ± 15 ms
NCc1ccc(F)cc1	Maoa (Rattus norvegicus, UniProt P21396)	substrate	rat	pH 9.0, α,α-protio substrate		kcat	0.983 ± 0.014 s⁻¹
NC(=O)NOCCCCCCCCCCCC[P+](c1ccccc1)(c1ccccc1)c1ccccc1.O=C([O-])C(F)(F)F	NADH dehydrogenase [ubiquinone] iron-sulfur protein 7, mitochondrial/NADH dehydrogenase [ubiquinone] iron-sulfur protein 2, mitochondrial/MT-ND1	complex I-dependent respiration, Seahorse XF96	HCT-116	3 µM, 24 h	baseline: control	oxygen consumption rate	4.75 ± 2.2%
O=C(COc1ccc(Cl)cc1Cl)Nc1nn(-c2ccccc2)c2cccnc12	Kir3.1/Kir3.2	activator, thallium flux	HEK293	concentration not given		activity	inactive
O=Nc1c(-c2c(O)[nH]c3ccccc23)[nH]c2ccccc12	TRPM8	antagonist	HEK293	5 µM	baseline: control	remaining activity	93.4 ± 10.9%
NC(=O)NO	NADH dehydrogenase [ubiquinone] iron-sulfur protein 7, mitochondrial/NADH dehydrogenase [ubiquinone] iron-sulfur protein 2, mitochondrial/MT-ND1	complex I-dependent respiration, Seahorse XF96	HCT-116	100 µM, 24 h	baseline: control	oxygen consumption rate	87.9 ± 9.53%
Nc1ncnc2c1ncn2[C@@H]1O[C@H](CSCC[C@H](N)C(=O)O)[C@@H](O)[C@H]1O	O-methyltransferase (Sorghum bicolor, UniProt A0A1B6PFV1)			concentration not given, with: RSV+		ΔG of binding	-7.37 kcal/mol
Cc1cnc(CCNC(=O)c2cc(-c3ccc(Cl)cc3)cs2)[nH]1	GAP50	binding, surface plasmon resonance		1:1 binding model		kon	12400 M⁻¹ s⁻¹
O=C(COP(=O)(O)O)[C@@H](O)[C@H](O)[C@H](O)COP(=O)(O)O	Eukaryotic translation initiation factor 3 subunit H (Homo sapiens, UniProt O15372)	thermal proteome profiling, measured: EIF3H	HepG2 cell lysate	concentration not given, 57 over 37 °C, mean	baseline: compound over control	thermal stability ratio	0.496
COc1cc(O)c(CC=C(C)C)c(O)c1C(=O)/C=C/c1ccc(O)cc1	Thyroxine 5-deiodinase (DIO3, Homo sapiens, UniProt P55073, A240R)	inhibitor		A240R variant		Hill slope	-1.03 and -1.04 and -0.91
O=c1[nH]c(NCCCc2ccccc2)c(Br)c(=O)[nH]1	FFAR4	antagonist, β-arrestin recruitment	CHO cells	10 µM, with: 4 µM TUG-891		inhibition	14 ± 1%
O=C1Nc2c(ccc(Cl)c2Cl)C1=NO	KCNN4/CALM1 (Homo sapiens, UniProt O15554+P0DP23, L185A)	activator, whole-cell patch clamp	HEK293 (L185A mutant)			Hill coefficient	1.4
COc1ccc(S(=O)(=O)N(CCO)c2ccccc2CN(C)CC=Cc2ccc(Cl)cc2)cc1	TRPM8	antagonist	HEK293	5 µM	baseline: control	remaining activity	102 ± 14%
CCCCCCCCN(C)c1cc(=O)[nH]c(=O)[nH]1	FFAR4	agonist, β-arrestin recruitment	CHO cells	10 µM		activation	1%
Oc1cccc(-c2nc(N3CCOCC3)c3oc4ncccc4c3n2)c1	TRPM8	antagonist	HEK293	5 µM	baseline: control	remaining activity	112 ± 10.3%
Cc1cc2c(c(=O)[nH]1)C(=O)O/C2=C\c1ccccc1OC(C)C	PDE1C isoform PDE1C2	enzyme activity, inhibitor		with: 3H-cGMP substrate		ligand efficiency	0.39
O=Nc1c(NCCCc2ccccc2)[nH]c(=O)[nH]c1=O	FFAR4	agonist, β-arrestin recruitment	CHO cells	10 µM	baseline: 30 µM TUG-891	agonist effect	1 ± 1%
CC(C)(C)c1cc(C(=O)Nc2cccnc2)cc(C(=O)Nc2cccnc2)c1	GAP50	binding, surface plasmon resonance		1:1 binding model		koff	1.56 s⁻¹
CCCCCCCCNc1cc(=O)n(C)c(=O)n1C	FFAR4	agonist, β-arrestin recruitment	CHO cells	10 µM	baseline: 30 µM TUG-891	agonist effect	1%

SMILES	target	assay	system	setting	how to read	quantity	value
Cc1cc(NC(=O)C2CCc3cc(Cl)ccc3O2)n(C2CCS(=O)(=O)C2)n1 (centres unmarked)	Kir3.1/Kir3.2	thallium flux, activator	HEK293		baseline: standard compound	Emax	63%
Nc1ncnc2c1ncn2[C@@H]1O[C@H](COP(=O)(O)OP(=O)(O)O)[C@@H](O)[C@H]1O	GUK1 (Homo sapiens, UniProt Q16774)	binding, isothermal titration calorimetry		molar ratio 0.09853, fitted curve		ΔH	-3.25 kcal/mol
C[C@@H]1C(=O)O[C@H]2C[C@@]34[C@H]5C[C@@H](C(C)(C)C)[C@]36[C@@H](OC(=O)[C@@H]6O)O[C@@]4(C(=O)O5)[C@]21O	Rdl (Drosophila melanogaster, UniProt P25123)	ion current, inhibitor, two-electrode voltage clamp		IC50, with: GABA at EC50		time constant of onset	5.2 ± 0.6 s
COc1ccccc1CNCCCCCCNCCCCCCCCNCCCCCCNCc1ccccc1OC	CHRM2 (Homo sapiens, UniProt P08172)	binding, antagonist, radioligand binding				Hill coefficient	0.9
Cc1nc(CSc2nc(SCc3ccc(C(C)C)cc3)nc(=O)[nH]2)cs1	TOP2A (Homo sapiens, UniProt P11388)	DNA relaxation		62.5 µM, replicate 1		relaxed DNA	99.3%
Cc1ccc(CCNc2cc(=O)[nH]c(=O)[nH]2)cc1	FFAR4	agonist, β-arrestin recruitment	CHO cells	10 µM		activation	1 ± 1%
Cc1cc(NCCc2ccccc2)nc(N=C(N)Nc2ccc(Cl)cc2)n1	GAP50	binding, surface plasmon resonance		1:1 binding model		koff	0.0517 s⁻¹
O=c1cc(NCc2cccc3ccccc23)[nH]c(=O)[nH]1	FFAR4	agonist, β-arrestin recruitment	CHO cells	10 µM		activation	1%
FC(F)(F)c1cc(Nc2nc(Cl)nc(Cl)n2)cc(C(F)(F)F)c1	CD209 antigen (CD209, Homo sapiens, UniProt Q9NNX6)	binding, grating-coupled interferometry	Man(α1,2)Man-PEG3 chip			Hill slope	2.7
C[S+](C)CCC(=O)[O-]	uncharacterized protein (Pelagibacter ubique, UniProt Q4FKZ8)	differential scanning fluorimetry	Candidatus Pelagibacter ubique	in-house screen		thermal shift	13.2 °C
Nc1nc2c(ncn2[C@@H]2O[C@H](COP(=O)(O)O)[C@@H](O)[C@H]2O)c(=O)[nH]1	GUK1 (Homo sapiens, UniProt Q16774, R44A)	enzyme activity, NADH-coupled		500 µM		reaction rate	-0.394 s⁻¹ and -1.89 s⁻¹
O=C(c1ccc(CNCCCN2CCN(c3ccc(F)cc3)CC2)cc1)c1ccc([N+](=O)[O-])cc1	TMEM97 (Homo sapiens, UniProt Q5BJF2)	radioligand binding	RT-4 cell membranes		baseline: sigma1 Ki over sigma2 Ki	Ki ratio	70.9
COc1ccccc1Nc1cccc2nccnc12	3-oxoacyl-[acyl-carrier-protein] reductase FabG (fabG, Pseudomonas aeruginosa, UniProt O54438)	enzyme activity, inhibitor, NADPH fluorescence		reverse reaction, with: 3-OH-decanoyl-NAC, NADP		Hill slope	1.3
COc1ccc(F)cc1C(=O)NCc1ccc(-c2nn([C@@H](C)C(F)(F)F)c(N)c2C(N)=O)cc1	ABL2 (Homo sapiens, UniProt P42684)	kinase activity, inhibitor, HotSpot radiometric		100 nM, with: ATP 10 µM		remaining activity	88.2 ± 0.2%
O=Nc1c(NCCc2ccccc2)[nH]c(=O)[nH]c1=O	FFAR4	agonist, β-arrestin recruitment	CHO cells	10 µM	baseline: 30 µM TUG-891	agonist effect	1 ± 1%
C=CC(=O)N1CCC(COCC(=O)N2CCN(c3nc(-c4cnc(N)nc4C(F)F)nc(N4CCOC[C@@H]4C)n3)CC2)CC1	STK39 (Homo sapiens, UniProt Q9UEW8)	KINOMEscan		1 µM		remaining binding	100%
COc1cc(F)ccc1-c1ncnc(Nc2cccc(C[S@](C)(=N)=O)c2)n1	CAMK1D (Homo sapiens, UniProt Q8IU85)	kinase activity		10 µM, with: 10 µM ATP		remaining activity	103%
c1ccc(C[C@@H]2CN(c3nccc(Oc4ccc(-n5ccnc5)cc4)n3)CCN2)cc1	GAP50	binding, surface plasmon resonance		1:1 binding model		koff	0.835 s⁻¹
Cc1cc2c(c(=O)[nH]1)C(=O)O/C2=C\c1ccccc1Cl	PDE1C isoform PDE1C2	enzyme activity, inhibitor		with: 3H-cGMP substrate		ligand efficiency	0.42
Cc1ccc(S(=O)(=O)NCc2ccc(CNC(=O)c3cccnc3)cc2)cc1	CXCR4 (Homo sapiens, UniProt P61073)	binding, inhibitor, competitive binding	MDA-MB-231	with: biotinylated TN14003		EC	> 1000 nM
O=C(COc1ccc(C(F)(F)F)cc1C(F)(F)F)Nc1cc(C2CC2)nn1CC(F)(F)F	Kir3.1/Kir3.2	thallium flux, activator	HEK293		baseline: standard compound	Emax	74%
Nc1ccc(C(=O)O)cc1	BEST1, with wild-type BEST1 (Homo sapiens, UniProt O76090, R218H)	ion current, whole-cell patch clamp	HEK293 co-expressing mutant and wild-type	concentration not given, voltage 0 mV		current density	-0.01 pA/pF and 0.01 pA/pF and -0.1 pA/pF and -0.08 pA/pF and -0.03 pA/pF and -0.09 pA/pF and -0.02 pA/pF
O=C(Nc1cccc(Nc2nccc(Nc3cccc(C(F)(F)F)c3)n2)c1)C1CC1	TRPM8	antagonist	HEK293	5 µM	baseline: control	remaining activity	87.9 ± 12.1%
COc1ccccc1-c1n[nH]c2nc(N[C@H]3CC[C@H](NS(=O)(=O)CCCOCCOCCNC(=O)OC(C)(C)C)CC3)ncc12	cyclin 9 (Leishmania donovani, UniProt A0A2D1QVA3)	resin binding, SILAC competition pull-down, measured: CYC9	Leishmania donovani extract	10 µM	baseline: heavy over light	log2 fold change	3.75
O=c1cc(NCCc2ccc(F)cc2)[nH]c(=O)[nH]1	FFAR4	agonist, β-arrestin recruitment	CHO cells	10 µM		activation	2 ± 1%
NC(=O)NOCCCCCCCCCCCCCCCC[P+](c1ccccc1)(c1ccccc1)c1ccccc1.O=C([O-])C(F)(F)F	NADH dehydrogenase [ubiquinone] iron-sulfur protein 7, mitochondrial/NADH dehydrogenase [ubiquinone] iron-sulfur protein 2, mitochondrial/MT-ND1	complex I-dependent respiration, Seahorse XF96	HCT-116	0.4 µM, 24 h	baseline: control	oxygen consumption rate	69.3 ± 7.08%

For quick reference, copied from above:
SMILES	target	assay	system	setting	how to read	quantity	value
Cc1nc(CSc2nc(SCc3ccc(C(C)C)cc3)nc(=O)[nH]2)cs1	TOP2A (Homo sapiens, UniProt P11388)	DNA relaxation		62.5 µM, replicate 1		relaxed DNA	99.3%
Cc1ccc(CCNc2cc(=O)[nH]c(=O)[nH]2)cc1	FFAR4	agonist, β-arrestin recruitment	CHO cells	10 µM		activation	1 ± 1%
COc1cc(O)c(CC=C(C)C)c(O)c1C(=O)/C=C/c1ccc(O)cc1	Thyroxine 5-deiodinase (DIO3, Homo sapiens, UniProt P55073, A240R)	inhibitor		A240R variant		Hill slope	-1.03 and -1.04 and -0.91
Nc1ncnc2c1ncn2[C@@H]1O[C@H](COP(=O)(O)OP(=O)(O)O)[C@@H](O)[C@H]1O	GUK1 (Homo sapiens, UniProt Q16774)	binding, isothermal titration calorimetry		molar ratio 0.09853, fitted curve		ΔH	-3.25 kcal/mol
NC(=O)NO	NADH dehydrogenase [ubiquinone] iron-sulfur protein 7, mitochondrial/NADH dehydrogenase [ubiquinone] iron-sulfur protein 2, mitochondrial/MT-ND1	complex I-dependent respiration, Seahorse XF96	HCT-116	100 µM, 24 h	baseline: control	oxygen consumption rate	87.9 ± 9.53%
